Published values of several laboratories.
Numbered parts are unrelated; each lists some results of a single study.

Block 1
Target: RING finger protein unkempt homolog, zinc fingers 1-6, GST-SBP tag (UNK, Homo sapiens, UniProt Q9C0B0, residues 30-357)
Method: RNA Bind-n-Seq
Form: RNA
Matrix: in vitro
Tested at: not given
Notes: RNA with constant flanks, human and mouse sites, ends assumed
Relative to: input RNA pool
Direction: higher = stronger binding
Constant ends, left off below: GGGAGUUCUACAGUCCGACGAUC … CAACAGAGGAUUGAGCAUCA
Target sequence (chain): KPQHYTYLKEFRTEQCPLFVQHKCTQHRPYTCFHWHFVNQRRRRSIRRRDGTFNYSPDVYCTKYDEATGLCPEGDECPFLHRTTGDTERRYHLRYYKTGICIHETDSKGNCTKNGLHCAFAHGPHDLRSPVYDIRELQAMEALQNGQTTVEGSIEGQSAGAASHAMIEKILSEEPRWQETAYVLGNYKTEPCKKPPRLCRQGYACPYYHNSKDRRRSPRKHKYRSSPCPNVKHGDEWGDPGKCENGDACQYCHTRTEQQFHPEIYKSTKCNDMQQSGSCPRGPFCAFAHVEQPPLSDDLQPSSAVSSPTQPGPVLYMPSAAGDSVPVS
`GAUGAAGUCGUUACAUCGGAGGGAAAGACUAAGCCCCUCAUACCAGAGAUGUGUUUUAUUUAUAGUGAAGAAAAUAUAGAAUAUUCUCCACCCAAUGCCUUCCUUGAAGAGGAUGGAACA` gave a bound/input enrichment of 0.275 ratio.
`UACCAUAAUCAAAAGUUUGAAAUAUCCUGUUUCUUAAAUAAUGAGAACAUUAAUCACAUUUAGCAAGCAUUUGUACAUUCAAACCUGGAUAUUAAAGUGAAAUGAUUACUUUGAAUCACU` has a bound/input enrichment of 0.217 ratio.
With `GUGACUUUGGAAGUCCGUAGUGUCUCAUUGCAGAUAAUUUUUAGCUUAGGGCCUGGUGGCUAGGUCGGUUCUCUCCUUUCCAGUCGGAGACCUCUGCCGCAAACAUGCUCCGCCAGAUCA` the bound/input enrichment was 7.75 ratio.
`ACUGAAUUAAAUCAUCAUGCAUAUUUGUUUCUCCAGAGCACCUUUGACAAACAUGAUUUGGACAGAGACUGUGCUUUGUCGCCUGAUGAACUUAAAGAUUUAUUUCAAGUUUUUCCUUAC` gave a bound/input enrichment of 0.188 ratio.
The bound/input enrichment of `UAAGCAUUCAUUUCACAACUAGAUUGUAUAUGGUAUUUGGCUGUGAUGAGACUCCCAUUAUUCAGUAAACCCUCAUCUCAUUCAGCAGGCACAUGUUAAACAGCAUUGUCGUUGGUGUGA` is reported as 3.06 ratio.
`GGAGUUUUUGGUGGCCCGUACCCGUUUGGCAUUGAUCCGAUUUGGAACAUUGCAACCAACAAGCUGACCUUCCUCAACUCCUUCAAGAUGAAGAUGUCUGUUAUCCUCGGCAUCAUCCAC` gave a bound/input enrichment of 0.0759 ratio.
For `UGCUAUCAGAGAAGAAAAUGAAAAACGAUUACGUGAAUCAUCAGGUACACUUUCAGGAAACACAGGAGACAUACCCGAAAAAAAGGAAAAGUCUUCAGAGAUAAUAAAAGUCGCAGCAGA`, the bound/input enrichment was 0.131 ratio.
`GUUGAAGUUGUUGCUGUUUCAUCCAUUCAUACACAAGACCCUUAUCUAGACAAAUUCUUUGCUCUUGUCAAUGCUCUGGAUGAACACAUGUUCCCGGUCCGAAUUGGGGACAUGCGGAUC` has a bound/input enrichment of 1.04 ratio.

Block 2
Target: RNA binding protein fox-1 homolog 2, RRM domain, GST-SBP tag (RBFOX2, Homo sapiens, UniProt O43251-10, residues 100-194)
Method: RNA Bind-n-Seq
Form: RNA
Matrix: in vitro
Tested at: 365 nM
Notes: natural RNA segment, single round, ends assumed
Relative to: no-protein control
Direction: higher = stronger binding
Constant ends, left off below: GGGAGUUCUACAGUCCGACGAUC … UGGAAUUCUCGGGUGCCAA
For `CUAAUAGUAAGUGUGAUUUGAUUCUAAAUAAUAGGGUAGGUUUGGCUAUAACAGAUGCUUUUAAAGCAAAUGAUACCAUUUAAGAAAUUCAGAGAGGCAUUACUUAGAAU`, “RBNS enrichment (R)” read 0.67.
`UGCCUCAGGUCCCGAGUAACUUAUGUUCAAUGUGCCAACACCAGUGGGGAGCCCGCAGGCCUAUGUGGCAGCGUCACCACAGGAGUUGUGGGCCUAGGAGAGGCUUUGGA`: “RBNS enrichment (R)” 0.399.
For `CUGUUUGCUAAACCACAACUCUUUUUGGCUACUUGGGUCAUAGAGACAGCAGAGUUGCUCCAAGUAUAAAUGUGACUUAGGCUCCCUCCAGCACACAGUGUGUAUGUUGG`, “RBNS enrichment (R)” read 0.609.
`CUUAAGUUGUAAAAAUUGAGAGUACAAUAUCUUUAGGGAUAGUCAUUAUUUCUCACAACUAGUUCUCUACGAGAGAUUUUGUUUCUACAAUGUAGUCAGCACUUAAUGGA` — result for “RBNS enrichment (R)”: 0.465.
`AACAAAACAAAACCUGAGAAAAUGCAAAACUGGAACUUUUUGCAAUAUUCUGAAAGAUAAUCUUCCUUUGGCUCAUUCUAUGACAUGUACAACUCUUAAGAAAGCCAUAC` — result for “RBNS enrichment (R)”: 0.83.
`UCUGCCAAAAGCAUUGUUUUCCAGGGCCCUUGACCAACAUCGGCUUCCCCAGUCCAGGGCUCCCCUGCUCCUUUCCCUUCCCUGUACUGGGGUAGCUCCUGCCUGCUCUC`: “RBNS enrichment (R)” 1.14.
Under “RBNS enrichment (R)”, `CGUCUCCCUCGACAGCGCCCCUGCUGUCUUCCCCACCGCAGUCACCACCACCCGAAAUGCCACGUGGUCACUGUGCACUGCCCUGUUCAUGUGCCUCUGCGGGGCAGGGC` is recorded as 0.677.
`CGUAUGUACACUGCAAUCAUUUCAUACUUUUGACUGGUCAGAAAAAAAAAACUAAUUGUGAUUUCUAGUCUUGCAAAGCUGUAUGCAGUUAGAUGAUGUGACCUCUAAUA` — result for “RBNS enrichment (R)”: 0.49.

Block 3
Target: Ras GTPase-activating protein-binding protein 1, full length (G3BP1, Homo sapiens, UniProt Q13283)
UniProt Q13283, sequence (whole entry, looked up): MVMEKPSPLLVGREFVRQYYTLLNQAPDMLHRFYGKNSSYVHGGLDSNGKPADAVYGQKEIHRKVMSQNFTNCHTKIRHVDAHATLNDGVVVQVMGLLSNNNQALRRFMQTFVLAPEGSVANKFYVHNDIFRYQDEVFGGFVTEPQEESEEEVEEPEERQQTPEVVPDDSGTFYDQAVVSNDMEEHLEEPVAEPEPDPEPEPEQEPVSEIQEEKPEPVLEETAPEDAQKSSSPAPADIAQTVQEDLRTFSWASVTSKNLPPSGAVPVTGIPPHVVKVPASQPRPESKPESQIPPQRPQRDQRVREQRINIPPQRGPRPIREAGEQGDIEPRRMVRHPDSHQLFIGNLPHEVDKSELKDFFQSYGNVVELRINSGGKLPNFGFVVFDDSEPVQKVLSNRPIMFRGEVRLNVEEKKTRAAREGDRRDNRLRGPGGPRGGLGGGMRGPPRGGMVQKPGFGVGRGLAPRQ
Method: RNA Bind-n-Seq
Form: RNA
Matrix: in vitro
Tested at: 200 nM
Notes: whole 134-nt RNA, ends assumed
With: 150 mM KCl
Relative to: input library
Direction: higher = stronger binding
Constant ends, left off below: GGGAGUUCUACAGUCCGACGAUC … UGGAAUUCUCGGGUGUCAAGG
`UCCUCAAGUCCUGUGCUACACAUCGUAUGUACCGAAUCGGGGAGGAGGAGGGAAAGUAUUAUGUUACGCCGUUCGGAUCUGCACUUCCAG` has a log2 enrichment of 0.346.
The log2 enrichment of `GCUGUUCUUGCCUUAGCUGCAUCUUGGACCUCAAGACAAGUAGGAGAACGGACGUUGACCGGUACGGUAAUAGACAGUGGAGAUGGUGUC` is reported as -1.19.
`GUCCUGUGCUACACAUCGUAUGUACCGAAUCGGGGAAAAAGGGGAAAGGGGUUUGGGGAAAGUAUUAUGUUACGCCGUUCGGAUCUGCAC` gave a log2 enrichment of 0.438.
The log2 enrichment of `AGUCCUGUGCUACACAUCGUAUGUACCGAAUCGGGAAAAAAAGGGUUUUUGGGAGGGAAAGUAUUAUGUUACGCCGUUCGGAUCUGCACU` is reported as -0.133.
For `UGCCAUAAGCGGCACCGGCACUGCCCGGUUGUCGUGUCCGAGGCCACCAUCGUGGGCGUCCGCAAGACCGGGCAGAUCUGGCCCAACGAU`, the log2 enrichment was -1.48.
The log2 enrichment of `CCUCAAGUCCUGUGCUACACAUCGUAUGUACCGAAUCGGGUGGGUGGGGUGGGAAAGUAUUAUGUUACGCCGUUCGGAUCUGCACUUCCA` is reported as 0.741.
For `UCCUGUGCUACACAUCGUAUGUACCGAAUCAAAUUUUUAAAUUUUUAAAUUUUUUUAAAAAAGUAUUAUGUUACGCCGUUCGGAUCUGCA`, the log2 enrichment was -0.595.
With `CACAGACAACACGCACCCACACAGACACAGAGGGAAGGGGUUGGGAUGGGGACAGGGUGCACAGCAGGGCGGGGUAGAAACCCAGCCCCU` the log2 enrichment was 1.85.
The log2 enrichment of `GCAGGAAGUAAAAACAAAUGGAAAUGCUUCGGAUAGUGGCAGGGGUGGGGGUUGCUAAGGAAAGGGUGGGAUGGGAGUGGGUAAAGAAUU` is reported as 1.24.

Further values, each from its own experiment
For `PhoQ, residues 284 288 289 292 302 303 AGCYAI`, the fold induction was 0.582 (PhoP, residues 12 14 15 18 19 TPLRH (Escherichia coli, UniProt P23836); Sort-seq, measured: YFP reporter; E. coli; PhoQ-PhoP variant library, with: 10 µM Mg2+; relative to: high Mg2+ state, higher = stronger signaling).
